Literature values as cited in several papers.
Protocols differ between the studies behind these lines. Values joined by “and” are separate records of one study, mostly repeats; a detail may differ. ± marks the error that the study gave.

Compound | target or system | test | system | conditions | quantity | result
CN[C@H](CC(C)C)C(=O)N[C@H]1C(=O)N[C@@H](CC(N)=O)C(=O)N[C@H]2C(=O)N[C@H]3C(=O)N[C@H](C(=O)N[C@H](C(=O)NCCCNC(=N)N)c4cc(O)cc(O)c4-c4cc3ccc4O)[C@H](O)c3ccc(c(Cl)c3)Oc3cc2cc(c3O[C@@H]2O[C@H](CO)[C@@H](O)[C@H](O)[C@H]2O[C@H]2C[C@](C)(NCc3ccc(-c4ccc(Cl)cc4)cc3)[C@H](O)[C@H](C)O2)Oc2ccc(cc2Cl)[C@H]1O | – | – | mouse | – | MTD | ≥ 50 mg/kg
C[C@]12C=CC(=O)C=C1[C@@H](CSC[C@H](N)C(=O)O)CC1C2CC[C@]2(C)C(=O)CCC12 (stereo partly shown) | – | – | women taking exemestane, plasma | dose not given | plasma concentration | 22 ± 2.9 nM
[Cl-].[Cl-].[Ru+2].c1ccc(-c2ccccn2)nc1.c1ccc(-c2ccccn2)nc1.c1ccc2cc3nc4c5cccnc5c5ncccc5c4nc3cc2c1 | – | – | acetonitrile | – | singlet oxygen quantum yield | 0.75
Clc1ccc(C(c2ccc(Cl)cc2)C(Cl)(Cl)Cl)cc1 | – | – | – | – | log Kow | 6.91
NCC[C@H](N)C(=O)O | – | – | – | – | pKa | 9.95
CC[C@H](C)[C@@H]1NC(=O)[C@@H]2CSSC[C@@H](C(=O)N[C@@H](CO)C(=O)N[C@@H](CC(C)C)C(=O)N[C@@H](CO)C(=O)N[C@H](C(=O)N[C@@H](C)C(=O)N[C@@H](CCC(N)=O)C(=O)N[C@@H](CCC(=O)O)C(=O)O)C(C)C)NC(=O)[C@H](CCCNC(=N)N)NC(=O)[C@H](CCCNC(=N)N)NC(=O)[C@H](CCCCN)NC(=O)[C@H](CCCNC(=N)N)NC(=O)[C@H](CSSC[C@H](NC(=O)[C@H](CO)NC(=O)[C@H](C)NC(=O)CNC(=O)[C@@H](NC(=O)[C@@H]3CCCN3C(=O)[C@H](CCCNC(=N)N)NC(=O)[C@H](CC(C)C)NC(=O)[C@H](CO)NC(=O)[C@@H](NC(=O)CNC(=O)[C@H](CCCNC(=N)N)NC(=O)[C@H](Cc3c[nH]c4ccccc34)NC(=O)[C@H](Cc3ccccc3)NC(=O)[C@@H]3CCCN3C(=O)[C@@H](NC(=O)[C@@H](N)CCSC)[C@@H](C)O)C(C)C)[C@@H](C)CC)C(=O)N[C@@H](CCCNC(=N)N)C(=O)N[C@@H](CC(=O)O)C(=O)N[C@@H](CC(=O)O)C(=O)N[C@@H](CO)C(=O)N[C@@H](CCC(=O)O)C(=O)N2)NC(=O)[C@H](CC(C)C)NC(=O)[C@H](CCCNC(=N)N)NC(=O)[C@H]([C@@H](C)O)NC1=O | – | – | human, plasma | – | plasma half-life | 9.1 ± 2.5 min
COc1nc(-c2cc(C)c(NC(C)c3ccc(F)cc3)nn2)ccc1-n1cnc(C)c1 (stereo not shown) | – | – | mouse | – | maximum tolerated dose | 100 mg/kg/day
COc1cc2c(cc1-n1ccnc1)C[C@H]1[C@H]3CCCC[C@@]23CCN1C | – | – | human liver microsomes | – | intrinsic clearance | 15.2 µL/min/mg protein
O=C(O)C(F)(OC(F)(F)C(F)(F)C(F)(F)F)C(F)(F)F (stereo not shown) | – | potentiometry | – | – | pKa | 2.84
CC[C@H](C)[C@H](NC(=O)[C@H](CCCN)NC(=O)[C@H](CCCNC(=N)N)NC(=O)[C@@H]1CCCN1C(=O)[C@@H]1CCCN1C(=O)[C@H](CCCNC(=N)N)NC(=O)[C@@H]1CCCN1C(=O)[C@H](CCCNC(=N)N)NC(=O)[C@@H]1CCCN1C(=O)[C@H](CC(C)C)NC(=O)[C@H](Cc1ccc(O)cc1)NC(=O)[C@@H]1CCCN1C(=O)[C@@H]1CCCN1C(=O)[C@H](CCCCN)NC(=O)[C@H](CC(=O)O)NC(=O)[C@@H](N)C(C)C)C(=O)N[C@@H](Cc1ccc(O)cc1)C(=O)N[C@@H](CC(N)=O)C(=O)N[C@@H](CCCN)C(N)=O | – | sandwich ELISA | plasma | ip, 5 mg/kg, 10 min | plasma concentration | 4020 ng/mL and 3910 ng/mL
CC(=O)OC1C(=O)C2(C)C(O)CC3OCC3(OC(C)=O)C2C(OC(=O)c2cccc(OC(F)(F)F)c2)C2(O)CC(OC(=O)C(O)C(C=C(C)C)NC(=O)OC(C)(C)C)C(C)=C1C2(C)C (stereo not shown) | LCC6-WT | cytotoxicity | – | – | IC50 | 0.51 nM
Cc1ccc(C(C)C)cc1.F[P-](F)(F)(F)(F)F.[Cl][Os+]1[N]2C=CC=c3ccc4c(c32)[N]1C=CC=4 | – | – | – | 45 °C | aquation half-life | 9 h
[Mn+2].[NH3+]CCN1CCN(CC(=O)[O-])Cc2cccc(n2)CN(CC(=O)[O-])CC1 | – | – | – | transmetallation, with: Zn(II) 25 mM | half-life | 54.4 h
CCC(=O)OC1C(=O)C2(C)C(O)CC3OCC3(OC(C)=O)C2C(OC(=O)c2cccc(OC(F)(F)F)c2)C2(O)CC(OC(=O)C(O)C(C=C(C)C)NC(=O)OC(C)(C)C)C(C)=C1C2(C)C (stereo not shown) | LCC6-WT | cytotoxicity | – | – | IC50 | 0.71 nM
C[C@@H]1O[C@@H](O[C@H]2[C@H](O)[C@@H](O)[C@H](OC[C@H]3O[C@@H](O[C@H]4CC[C@@]5(C)[C@@H](CC[C@]6(C)[C@@H]5C=C[C@]57OC[C@@]8(CCC(C)(C)C[C@H]85)[C@@H](O)C[C@]76C)[C@]4(C)CO)[C@H](O)[C@@H](O)[C@@H]3O)O[C@@H]2CO)[C@H](O)[C@H](O)[C@H]1O | – | – | – | – | logP | -0.37
Brc1ccc(Oc2ccc(Br)cc2Br)c(Br)c1 | – | – | – | – | log Kow | 6.81
c1ccc2cc3c(ccc4ccccc43)cc2c1 | – | substrate | human liver microsomes | – | Km | 0.09 µM
CCc1nn(C)c2nc(-c3ccc(C(=O)O)cc3)nc(NCc3ccccc3)c12 | – | – | mouse | – | oral bioavailability | 33%
C=C/C=C/C[C@@H](C)[C@@H](O)[C@H]1C(=O)N[C@@H](CC)C(=O)N(C)CC(=O)N(C)[C@@H](CC(C)C)C(=O)N[C@@H](C(C)C)C(=O)N(C)[C@@H](CC(C)C)C(=O)N[C@@H](C)C(=O)N[C@H](C)C(=O)N(C)[C@@H](CC(C)C)C(=O)N(C)[C@@H](CC(C)C)C(=O)N(C)[C@@H](C(C)C)C(=O)N1C | – | – | human patients | 23.7 mg twice daily | AUC(0-24h) | 866 ng·h/mL

Some of these lines once more:
Compound | target or system | test | system | conditions | quantity | result
COc1cc2c(cc1-n1ccnc1)C[C@H]1[C@H]3CCCC[C@@]23CCN1C | – | – | human liver microsomes | – | intrinsic clearance | 15.2 µL/min/mg protein
O=C(O)C(F)(OC(F)(F)C(F)(F)C(F)(F)F)C(F)(F)F (stereo not shown) | – | potentiometry | – | – | pKa | 2.84
